Measurements pooled from the literature.
Each line is one published result; not all experiments were run side by side. Numbers after ± are the reported error.
Sequence of UniProt Q3TKT4 (whole entry, looked up): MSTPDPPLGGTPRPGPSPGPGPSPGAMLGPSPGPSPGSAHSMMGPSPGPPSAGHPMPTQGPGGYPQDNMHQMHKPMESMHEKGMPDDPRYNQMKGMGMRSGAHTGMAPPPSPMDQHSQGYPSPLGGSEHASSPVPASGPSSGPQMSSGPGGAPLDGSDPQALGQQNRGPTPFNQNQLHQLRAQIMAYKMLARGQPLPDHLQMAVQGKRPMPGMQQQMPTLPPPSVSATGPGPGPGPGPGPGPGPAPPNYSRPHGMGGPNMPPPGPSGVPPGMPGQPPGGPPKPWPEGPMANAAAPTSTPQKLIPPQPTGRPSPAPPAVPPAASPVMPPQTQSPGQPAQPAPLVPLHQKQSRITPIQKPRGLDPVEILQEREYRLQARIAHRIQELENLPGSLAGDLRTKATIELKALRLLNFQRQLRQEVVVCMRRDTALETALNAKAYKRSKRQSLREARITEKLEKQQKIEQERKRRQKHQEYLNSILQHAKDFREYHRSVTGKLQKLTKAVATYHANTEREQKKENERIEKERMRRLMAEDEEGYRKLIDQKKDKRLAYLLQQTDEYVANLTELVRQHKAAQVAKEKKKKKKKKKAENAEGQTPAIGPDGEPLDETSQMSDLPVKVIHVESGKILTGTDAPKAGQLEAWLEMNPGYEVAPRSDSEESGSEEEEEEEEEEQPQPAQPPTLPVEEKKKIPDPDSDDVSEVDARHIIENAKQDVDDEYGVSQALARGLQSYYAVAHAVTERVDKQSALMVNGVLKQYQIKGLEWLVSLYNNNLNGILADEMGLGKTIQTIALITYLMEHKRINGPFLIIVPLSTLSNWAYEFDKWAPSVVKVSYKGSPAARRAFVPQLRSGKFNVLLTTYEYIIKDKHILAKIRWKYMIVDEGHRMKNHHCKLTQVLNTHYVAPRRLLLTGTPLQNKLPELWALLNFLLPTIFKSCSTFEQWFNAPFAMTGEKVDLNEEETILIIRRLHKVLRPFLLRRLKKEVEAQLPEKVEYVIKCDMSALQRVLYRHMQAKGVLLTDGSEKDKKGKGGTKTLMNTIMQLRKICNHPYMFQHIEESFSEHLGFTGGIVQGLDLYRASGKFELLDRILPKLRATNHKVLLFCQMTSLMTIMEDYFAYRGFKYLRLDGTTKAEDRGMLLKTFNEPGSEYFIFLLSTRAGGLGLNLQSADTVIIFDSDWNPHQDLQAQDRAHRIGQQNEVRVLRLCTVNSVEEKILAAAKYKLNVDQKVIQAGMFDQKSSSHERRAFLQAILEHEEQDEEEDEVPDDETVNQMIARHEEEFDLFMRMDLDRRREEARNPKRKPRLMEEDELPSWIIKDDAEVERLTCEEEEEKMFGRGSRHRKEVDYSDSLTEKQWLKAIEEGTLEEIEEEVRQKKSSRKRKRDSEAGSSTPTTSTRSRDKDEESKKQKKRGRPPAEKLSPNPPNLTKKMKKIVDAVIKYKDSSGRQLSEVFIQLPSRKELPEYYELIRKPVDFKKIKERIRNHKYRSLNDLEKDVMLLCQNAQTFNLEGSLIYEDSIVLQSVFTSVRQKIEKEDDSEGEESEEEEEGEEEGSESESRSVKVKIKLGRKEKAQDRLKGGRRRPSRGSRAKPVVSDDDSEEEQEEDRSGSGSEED

| Strand | target | assay | system | setting | measurement | result |
| --- | --- | --- | --- | --- | --- | --- |
| TCAGTGACCCATCTTGCTGAGTCATGCTAAACCTGTTGA (dsDNA) | NRF2/MAFG (Homo sapiens) | competition EMSA | double-stranded DNA, one strand shown | 500 nM | binding | binds |
| AAGGGGGGCTATAAAAGGGGGTGGGGGCGCGTTCGTCCTCACTCTCTTCCCCTCCATACC (dsDNA) | TBP/GTF2B 1-339; 1-316 with insertion (Homo sapiens) | EMSA | double-stranded DNA, one strand shown | uncleaved | binding | binds |
| AATCCGCAGTCACAGTGACTCAGCAGAATCTGAGCCTAG (dsDNA) | NRF2/MAFG (Homo sapiens) | EMSA | double-stranded DNA, one strand shown | – | binding | binds |
| GGGCGUCCCUCCCGAAGCUGCGCGCUCGGUCGAAGAGGACGACC (structured RNA) | Smarca4 AT-hook (Mus musculus, UniProt Q3TKT4) | EMSA | folded RNA | together with: Mg2+ 5 mM | Kd | 410 nM |
| CGATCATGGAGCCACGAGCTCCCGTTACAG / CTGTAACGGGAGCTAGTGGCTCCATGATCG (dsDNA; blunt, 8-oxoG:2'-fluoro-arabino-A pair) | MUTYH 1-535 S524A (Homo sapiens) | EMSA | – | – | Kd | 1.5 ± 0.1 nM |
| TGCCATAGAATCTCGACTATCGCAAAT (ssDNA) | gene 32 protein 22-301 del1-21 (bacteriophage T4, UniProt P03695) | EMSA | single-stranded DNA | together with: Mg2+ | binding | no binding |

A few entries again:
| Strand | target | assay | system | setting | measurement | result |
| --- | --- | --- | --- | --- | --- | --- |
| CGATCATGGAGCCACGAGCTCCCGTTACAG / CTGTAACGGGAGCTAGTGGCTCCATGATCG (dsDNA; blunt, 8-oxoG:2'-fluoro-arabino-A pair) | MUTYH 1-535 S524A (Homo sapiens) | EMSA | – | – | Kd | 1.5 ± 0.1 nM |
